Results collected from several papers.
Matrix: plasma

| species | route | dose | setting | quantity | result | SMILES |
| --- | --- | --- | --- | --- | --- | --- |
| male Sprague-Dawley rat | oral | 3 mg/kg | – | AUC(0-inf) | 2.73 µg·h/mL | C/C(N)=N/C(=N\S(=O)(=O)c1ccc(C(F)(F)F)cc1)N1C[C@H](c2ccccc2)C(c2ccc(Cl)cc2)=N1 |
| male Sprague-Dawley rat | intraperitoneal | 10 mg/kg | – | AUC(0-inf) | 3.65 µg·h/mL | CCC(CC)n1c(Cc2cccs2)nc2cc(C(=O)N[C@@H](CC(=O)O)c3ccccc3)ccc21 |
| male Sprague-Dawley rat | intravenous | 1 mg/kg | – | AUC(0-t) | 1700 nM·h | CN1CCC[C@@H]1C(=O)N[C@@H](Cc1ccc(-c2ccccc2)cc1)B(O)O |
| male Sprague-Dawley rat | oral | 20 mg/kg | – | AUC(0-inf) | 0.0465 µg·h/mL | Cc1cc2c(cc1O)C=C1C=CC(=O)C(C)(C)[C@H]1CC2 |
| Sprague-Dawley rat | oral | 20 mg/kg | – | AUC(0-inf) | 40.3 µg·h/mL | OC1(C(F)(F)F)CCN(c2nc(Nc3ccnc(C(F)(F)F)c3)nc(-c3cccc(C(F)(F)F)n3)n2)C1 (stereo not shown) |
| male Wistar rat | intraperitoneal | 25 mg/kg | single dose | AUC(0-t) | 0.884 µg·h/mL | CCCN(C)c1cc(C(F)(F)F)nc(SCCC(=O)NCc2ccco2)n1 |
| male Sprague-Dawley rat | intravenous | 10 mg/kg | single dose | AUC(0-t) | 4.54 µg·h/mL | COc1cc(OC)c2c(=O)cc(-c3cc(C)c(OCCCN4CCN(C)CC4)c(C)c3)oc2c1 |
| female Sprague-Dawley rat | intraperitoneal | 50 mg/kg | – | AUC(0-inf) | 3.38 µg·h/mL | COc1cc(C2C3=C(COC3=O)N(CCO)c3cc4c(cc32)CCC4)cc(OC)c1OC (stereo not shown) |
| male Sprague-Dawley rat | oral | 10 mg/kg | – | AUC(0-t) | 0.458 µg·h/mL | O=c1c(-c2ccc(Cl)c(CN3CCOCC3)c2)coc2cc(O)ccc12 |
| male Sprague-Dawley rat | intravenous | 1 mg/kg | – | AUC(0-t) | 0.507 µg·h/mL | O=C(C1CCN(c2nnnn2-c2ccccc2)CC1)N1CCCc2ccccc21 |
| male Sprague-Dawley rat | intravenous | 5 mg/kg | – | AUC(0-inf) | 0.85 µg·h/mL | COC(=O)C1=CNC=C(C(=O)OC)C1c1ccc(F)c(C(F)(F)F)c1 |
| Sprague-Dawley rat | oral | 5 mg/kg | – | AUC | 8.28 µg·h/mL | COC1C(c2ccc(Cl)c(Cc3ccc(OC4CCOC4)cc3)c2)OC(CO)C(O)C1O (stereo not shown) |
| rat | intravenous | 10 mg/kg | single dose | AUC | 20.9 µg·h/mL | CC1(C)C(NC(=O)C(=NOC2(C(=O)O)CC2)c2csc(N)n2)C(=O)N1OS(=O)(=O)O (stereo not shown) |
| male Sprague-Dawley rat | intravenous | 1 mg/kg | – | AUC(0-t) | 0.798 µg·h/mL | CCC(CC)n1c(Cc2ccco2)nc2cc(C(=O)N[C@@H](CC(=O)O)c3ccccc3)ccc21 |
| Sprague-Dawley rat | oral | 10 mg/kg | – | AUC(0-inf) | 2.9 µg·h/mL | Cc1cccc(Cn2ncc3c4cc(F)c(CN(C)C)cc4n(C)c3c2=O)n1 |
| male Sprague-Dawley rat | intravenous | 10 mg/kg | – | AUC(0-t) | 0.174 µg·h/mL | COc1cc(-c2cc(=O)c3ccc(OCCCn4c(Cl)nc5ccccc54)cc3o2)cc(OC)c1OC |

Some of these lines once more:
| species | route | dose | setting | quantity | result | SMILES |
| --- | --- | --- | --- | --- | --- | --- |
| male Sprague-Dawley rat | oral | 3 mg/kg | – | AUC(0-inf) | 2.73 µg·h/mL | C/C(N)=N/C(=N\S(=O)(=O)c1ccc(C(F)(F)F)cc1)N1C[C@H](c2ccccc2)C(c2ccc(Cl)cc2)=N1 |
